{"data": "Measured values of several laboratories", "note": "Parts stem from different laboratories: compare values within a part only."}
{"data": "Sample 1", "target": "Interferon regulatory factor 7, full length, phosphomimetic (IRF7, Homo sapiens, UniProt Q92985, residues 1-503, S471D/S472D/S475D/S476D/S477D/S483D/S484D/S487D)", "method": "protein-binding microarray", "form": "double-stranded DNA, one strand shown", "medium": "in vitro", "concentration": "2200 nM top", "notes": "60-bp whole probe", "added": "salmon DNA 0.4 mg/ml", "reference": "random background probes", "reading": "higher = stronger binding", "shared flanks, not repeated": "GCCTAGCAC … GTCTTGATTCGCTTGACGCTGCTG", "UniProt Q92985, sequence (whole entry, unmodified, looked up)": "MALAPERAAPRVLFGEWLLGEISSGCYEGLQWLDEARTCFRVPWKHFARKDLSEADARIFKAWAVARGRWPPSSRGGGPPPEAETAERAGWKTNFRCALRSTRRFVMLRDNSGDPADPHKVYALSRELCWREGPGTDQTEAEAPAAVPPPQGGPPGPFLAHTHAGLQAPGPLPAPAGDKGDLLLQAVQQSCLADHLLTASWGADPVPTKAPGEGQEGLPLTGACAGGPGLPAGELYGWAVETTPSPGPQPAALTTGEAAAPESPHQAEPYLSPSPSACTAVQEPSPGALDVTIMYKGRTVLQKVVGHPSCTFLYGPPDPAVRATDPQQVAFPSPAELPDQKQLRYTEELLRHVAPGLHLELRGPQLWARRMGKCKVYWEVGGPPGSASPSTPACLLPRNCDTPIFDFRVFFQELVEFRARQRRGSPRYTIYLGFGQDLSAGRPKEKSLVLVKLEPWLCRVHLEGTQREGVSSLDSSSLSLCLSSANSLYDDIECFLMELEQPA"}
{"Oligonucleotide": "TTCACTTTAACTTATTCTCTAGTGCTA", "fitted relative affinity [z-score]": 1.17}
{"Oligonucleotide": "TTAGGTACCCTTATCCTTTAGTGCTAG", "fitted relative affinity [z-score]": 0.792}
{"Oligonucleotide": "GCCGGACTGGGTTTCGGGACGTGCTAG", "fitted relative affinity [z-score]": 0.587}
{"Oligonucleotide": "GACGGTCTCGGACTGAGGACGTGCTAG", "fitted relative affinity [z-score]": -0.449}
{"Oligonucleotide": "GACGGTTTCGATTTTCGGGACGTGCTA", "fitted relative affinity [z-score]": 10.1}
{"Oligonucleotide": "ATTTTTTAGCTTCTCAATTAGTGCTAG", "fitted relative affinity [z-score]": 0.944}
{"Oligonucleotide": "AGCTACTGAGTGGCAACACAGTGCTAG", "fitted relative affinity [z-score]": -0.591}
{"Oligonucleotide": "GACGAACTAAGTTTCGAGACGTGCTAG", "fitted relative affinity [z-score]": 2.8}
{"Oligonucleotide": "GACGAACTGAGTGTCGAGACGTGCTAG", "fitted relative affinity [z-score]": -0.244}
{"Oligonucleotide": "TTTAGCAGACTGAGAGGAACGTGCTAG", "fitted relative affinity [z-score]": -0.673}
{"Oligonucleotide": "TCATGCTTTCCTTTATGACTGTGCTAG", "fitted relative affinity [z-score]": 2.34}
{"data": "Sample 2", "target": "Histone acetyltransferase KAT6A, both winged helices, GST fusion (KAT6A, Homo sapiens, UniProt Q92794, residues 1-181)", "method": "protein binding microarray", "form": "double-stranded DNA, one strand shown", "medium": "in vitro", "concentration": "not given", "notes": "8-mer, flanks averaged, mean of 2 arrays, mostly near background", "reference": "not given", "reading": "higher = stronger binding", "Residues (chain)": "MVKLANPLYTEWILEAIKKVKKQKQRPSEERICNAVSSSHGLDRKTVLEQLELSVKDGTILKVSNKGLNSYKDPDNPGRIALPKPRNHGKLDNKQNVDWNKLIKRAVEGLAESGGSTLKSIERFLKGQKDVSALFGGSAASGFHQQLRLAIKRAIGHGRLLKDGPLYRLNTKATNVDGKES"}
{"Oligonucleotide": "ATTTAGCG", "E-score": 0.114}
{"Oligonucleotide": "ATGTCTCG", "E-score": -0.0486}
{"Oligonucleotide": "CTATATAA", "E-score": 0.0213}
{"Oligonucleotide": "CTAGGCAA", "E-score": -0.0898}
{"Oligonucleotide": "GCTTCTCC", "E-score": -0.0178}
{"Oligonucleotide": "CGAGGAAA", "E-score": -0.114}
{"Oligonucleotide": "CTTTGTCC", "E-score": -0.0979}
{"Oligonucleotide": "CAGTCGAC", "E-score": 0.125}
{"data": "Further values, each from its own experiment"}
{"Substance": "SNW1 (Homo sapiens, UniProt Q13573)", "target or system": "SNRNP40 (Homo sapiens, UniProt Q96DI7)", "test": "cross-linking MS", "conditions": "hits only", "quantity": "interaction screen", "result": "cross-linked"}
{"Substance": "PhoQ, residues 284 288 289 292 302 303 TVTVVA", "target or system": "PhoP, residues 12 14 15 18 19 IQFRS (Escherichia coli, UniProt P23836)", "test": "Sort-seq, refers to: YFP reporter", "test system": "E. coli", "conditions": "PhoQ-PhoP variant library, added: 10 µM Mg2+", "scale": "reference: high Mg2+ state, higher = stronger signaling", "quantity": "fold induction", "result": 18.2}
{"Substance": "GSPLKKLFTSTGA", "target or system": "human cyclin A2", "test": "peptide binding, competitive growth sequencing", "test system": "peptide, Saccharomyces cerevisiae, cyclin A2-Cln2 fusion strain", "conditions": "concentration not given, combined libraries", "scale": "reference: unfused Cln2 strain, direction not given", "quantity": "binding score", "result": 1.3}
{"Substance": "CHN2 (Homo sapiens, UniProt P52757)", "target or system": "DHX38 (Homo sapiens, UniProt Q92620)", "test": "cross-linking MS", "test system": "cell fractions", "conditions": "added: DSSO", "quantity": "cross-linked residues", "result": "K307 to K1210"}
{"note": "For quick reference, copied from above (sample 1):"}
{"Oligonucleotide": "ATTTTTTAGCTTCTCAATTAGTGCTAG", "fitted relative affinity [z-score]": 0.944}
{"Oligonucleotide": "AGCTACTGAGTGGCAACACAGTGCTAG", "fitted relative affinity [z-score]": -0.591}
